Measured values pooled from the literature.
Lines come from different studies, so protocols differ. Several values in a cell are separate wells, animals, samples, runs or records.

GPC fragment V4Y (lymphocytic choriomeningitis virus) — half-life (H2-D1/B2m (Mus musculus); flow cytometry; RMA-S): > 1 h
COc1cc2ncnc(Nc3cccc(Cl)c3)c2cc1OC — inhibition (Monkeypox virus; viral replication; replication-deficient; 2 µM): 81.2% and 89.1% and 87%
COc1ccc2cc3c(N)nn(C(=O)Cc4c[nH]c5ccccc45)c3nc2c1 — inhibition (MERS-CoV spike VSV pseudovirus; pseudovirus entry; 10 µM): 44%
GPC fragment S4Y (lymphocytic choriomeningitis virus) — half-life (H2-D1/B2m (Mus musculus); flow cytometry; RMA-S): > 1 h
COc1ncc(-c2cn([C@@H]3O[C@](F)(CO)[C@@H](O)[C@H]3O)cn2)c(OC)n1 — IC50 (Zaire ebolavirus; viral replication, reporter virus; Huh-7; 72 h): > 100 µM
CCOP(=O)(OCC)Oc1ccc([N+](=O)[O-])cc1 — log Freundlich coefficient (SPME sorption isotherm; PBS): 2.44
COc1nc(N)ncc1-c1cn([C@@H]2O[C@](F)(CO[P@@](=O)(N[C@@H](C)C(=O)OC(C)C)Oc3ccccc3)[C@@H](O)[C@H]2O)cn1 — IC50 (Zaire ebolavirus; viral replication, reporter virus; Huh-7; 72 h): > 100 µM
O=c1ccn([C@@H]2O[C@](F)(CO)[C@@H](O)[C@H]2O)c(=O)[nH]1 — EC50 (Mammarenavirus lassaense; viral replication; HeLa, clade III Nigeria-383): 7.97 µM

Repeated from above:
COc1ccc2cc3c(N)nn(C(=O)Cc4c[nH]c5ccccc45)c3nc2c1 — inhibition (MERS-CoV spike VSV pseudovirus; pseudovirus entry; 10 µM): 44%
